Experimental data pooled from the literature.
Protocols differ between the studies behind these lines. ± marks the error that the study gave.
EPHB6: Ephrin type-B receptor 6 (EPHB6, Homo sapiens, UniProt O15197)
Chain of UniProt O15197 (whole entry, looked up): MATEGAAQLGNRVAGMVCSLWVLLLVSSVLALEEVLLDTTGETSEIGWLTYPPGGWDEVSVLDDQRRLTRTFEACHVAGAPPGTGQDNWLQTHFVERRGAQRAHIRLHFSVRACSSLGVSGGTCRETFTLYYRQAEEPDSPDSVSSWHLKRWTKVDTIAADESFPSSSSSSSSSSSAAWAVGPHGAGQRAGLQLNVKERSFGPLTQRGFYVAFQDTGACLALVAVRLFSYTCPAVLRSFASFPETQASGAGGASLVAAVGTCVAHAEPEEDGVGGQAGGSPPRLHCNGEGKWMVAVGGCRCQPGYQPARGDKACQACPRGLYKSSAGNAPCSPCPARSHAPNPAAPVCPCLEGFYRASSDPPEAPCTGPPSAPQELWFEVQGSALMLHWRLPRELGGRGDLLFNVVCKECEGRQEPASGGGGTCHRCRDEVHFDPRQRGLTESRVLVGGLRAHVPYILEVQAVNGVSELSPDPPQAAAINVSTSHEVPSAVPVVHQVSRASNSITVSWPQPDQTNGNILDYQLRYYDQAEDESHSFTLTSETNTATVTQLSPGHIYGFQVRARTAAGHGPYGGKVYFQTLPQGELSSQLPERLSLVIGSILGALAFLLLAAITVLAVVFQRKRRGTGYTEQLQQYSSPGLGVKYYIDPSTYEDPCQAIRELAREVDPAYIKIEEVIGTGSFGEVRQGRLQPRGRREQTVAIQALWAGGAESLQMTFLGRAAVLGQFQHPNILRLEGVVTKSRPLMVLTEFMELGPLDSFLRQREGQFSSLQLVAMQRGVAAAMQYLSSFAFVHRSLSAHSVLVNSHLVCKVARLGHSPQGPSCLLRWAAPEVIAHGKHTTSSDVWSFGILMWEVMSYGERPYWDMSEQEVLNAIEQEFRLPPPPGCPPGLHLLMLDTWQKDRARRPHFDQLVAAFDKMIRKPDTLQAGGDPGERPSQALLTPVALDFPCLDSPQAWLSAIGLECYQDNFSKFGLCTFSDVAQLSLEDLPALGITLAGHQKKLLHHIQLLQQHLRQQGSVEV
Chain of UniProt O75914 (whole entry, looked up): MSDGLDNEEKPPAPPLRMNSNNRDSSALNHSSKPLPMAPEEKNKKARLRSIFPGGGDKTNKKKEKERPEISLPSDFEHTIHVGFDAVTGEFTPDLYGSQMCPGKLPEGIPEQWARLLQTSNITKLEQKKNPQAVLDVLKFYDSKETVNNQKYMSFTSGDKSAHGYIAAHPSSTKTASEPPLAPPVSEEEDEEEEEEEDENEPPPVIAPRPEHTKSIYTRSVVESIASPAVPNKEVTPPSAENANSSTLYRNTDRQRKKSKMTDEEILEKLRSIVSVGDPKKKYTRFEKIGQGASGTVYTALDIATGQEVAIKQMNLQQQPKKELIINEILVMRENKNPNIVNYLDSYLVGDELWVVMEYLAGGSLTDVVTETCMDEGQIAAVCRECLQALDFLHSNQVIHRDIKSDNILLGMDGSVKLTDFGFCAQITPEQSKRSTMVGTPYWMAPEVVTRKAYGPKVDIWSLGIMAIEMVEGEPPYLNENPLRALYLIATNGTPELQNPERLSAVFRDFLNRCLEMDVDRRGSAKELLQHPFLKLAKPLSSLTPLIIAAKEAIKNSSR
Chain of UniProt Q13572 (whole entry, looked up): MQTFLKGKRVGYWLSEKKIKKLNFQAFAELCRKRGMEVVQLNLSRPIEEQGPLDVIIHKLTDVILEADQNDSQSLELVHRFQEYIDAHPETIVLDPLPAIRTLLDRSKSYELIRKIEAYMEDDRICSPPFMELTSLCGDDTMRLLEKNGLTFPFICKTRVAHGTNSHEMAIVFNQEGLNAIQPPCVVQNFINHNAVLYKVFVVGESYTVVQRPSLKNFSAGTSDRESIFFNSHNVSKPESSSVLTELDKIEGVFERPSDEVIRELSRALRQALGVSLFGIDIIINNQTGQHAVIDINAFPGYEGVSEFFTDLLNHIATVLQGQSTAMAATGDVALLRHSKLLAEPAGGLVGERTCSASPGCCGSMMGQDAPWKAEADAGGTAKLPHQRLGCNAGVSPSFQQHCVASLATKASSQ
Chain of UniProt Q70CQ1 (whole entry, looked up): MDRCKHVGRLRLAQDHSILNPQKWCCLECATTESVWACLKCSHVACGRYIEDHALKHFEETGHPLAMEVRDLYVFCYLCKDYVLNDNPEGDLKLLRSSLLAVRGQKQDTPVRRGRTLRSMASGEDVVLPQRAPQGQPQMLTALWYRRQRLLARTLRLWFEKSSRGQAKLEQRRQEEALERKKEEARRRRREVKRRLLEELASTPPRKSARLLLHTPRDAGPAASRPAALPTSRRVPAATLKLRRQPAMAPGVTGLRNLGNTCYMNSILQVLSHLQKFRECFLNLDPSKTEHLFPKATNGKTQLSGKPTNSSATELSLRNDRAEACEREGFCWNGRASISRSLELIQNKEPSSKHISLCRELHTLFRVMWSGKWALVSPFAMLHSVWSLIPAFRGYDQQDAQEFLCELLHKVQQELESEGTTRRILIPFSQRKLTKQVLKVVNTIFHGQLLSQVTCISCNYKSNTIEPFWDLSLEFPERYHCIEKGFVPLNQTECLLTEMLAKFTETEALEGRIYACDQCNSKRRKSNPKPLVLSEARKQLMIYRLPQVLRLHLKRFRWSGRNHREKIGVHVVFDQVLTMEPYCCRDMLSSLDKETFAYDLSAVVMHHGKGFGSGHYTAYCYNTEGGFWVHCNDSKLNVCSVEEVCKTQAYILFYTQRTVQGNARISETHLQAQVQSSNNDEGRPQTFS
Chain of UniProt Q5TCY1 (whole entry, looked up): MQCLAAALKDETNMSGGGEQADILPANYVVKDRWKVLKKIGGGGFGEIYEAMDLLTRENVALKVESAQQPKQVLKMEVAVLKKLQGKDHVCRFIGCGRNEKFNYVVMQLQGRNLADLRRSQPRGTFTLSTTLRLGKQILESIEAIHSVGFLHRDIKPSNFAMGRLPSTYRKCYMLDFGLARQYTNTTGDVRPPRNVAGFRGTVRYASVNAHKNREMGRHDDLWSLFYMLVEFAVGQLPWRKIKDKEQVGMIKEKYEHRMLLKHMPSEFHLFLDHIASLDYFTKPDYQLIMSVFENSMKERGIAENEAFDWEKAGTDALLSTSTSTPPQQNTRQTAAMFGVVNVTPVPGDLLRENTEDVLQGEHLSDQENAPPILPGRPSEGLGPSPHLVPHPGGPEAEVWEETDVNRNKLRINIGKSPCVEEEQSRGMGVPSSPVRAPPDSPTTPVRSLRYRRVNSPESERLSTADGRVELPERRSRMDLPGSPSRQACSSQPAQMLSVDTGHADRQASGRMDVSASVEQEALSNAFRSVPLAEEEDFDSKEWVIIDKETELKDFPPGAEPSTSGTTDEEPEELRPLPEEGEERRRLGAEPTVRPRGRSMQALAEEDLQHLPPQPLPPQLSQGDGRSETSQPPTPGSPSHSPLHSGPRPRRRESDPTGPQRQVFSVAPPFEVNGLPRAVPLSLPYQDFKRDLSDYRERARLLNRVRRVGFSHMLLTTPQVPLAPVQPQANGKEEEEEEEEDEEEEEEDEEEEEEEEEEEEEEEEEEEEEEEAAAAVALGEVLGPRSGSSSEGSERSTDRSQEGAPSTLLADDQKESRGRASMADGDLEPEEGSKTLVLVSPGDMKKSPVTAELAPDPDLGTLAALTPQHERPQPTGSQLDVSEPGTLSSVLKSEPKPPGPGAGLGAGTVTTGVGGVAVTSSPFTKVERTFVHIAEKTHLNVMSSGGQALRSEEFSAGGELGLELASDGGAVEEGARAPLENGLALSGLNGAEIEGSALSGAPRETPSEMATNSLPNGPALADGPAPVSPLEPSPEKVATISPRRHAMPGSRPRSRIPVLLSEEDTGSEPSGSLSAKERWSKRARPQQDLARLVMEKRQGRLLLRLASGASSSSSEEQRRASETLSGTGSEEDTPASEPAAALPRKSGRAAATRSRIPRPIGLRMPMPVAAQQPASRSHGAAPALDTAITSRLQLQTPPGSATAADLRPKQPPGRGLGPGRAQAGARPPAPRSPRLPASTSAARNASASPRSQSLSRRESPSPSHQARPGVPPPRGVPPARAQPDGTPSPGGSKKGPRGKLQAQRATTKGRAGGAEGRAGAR
Chain of UniProt P48067 (whole entry, unmodified, looked up): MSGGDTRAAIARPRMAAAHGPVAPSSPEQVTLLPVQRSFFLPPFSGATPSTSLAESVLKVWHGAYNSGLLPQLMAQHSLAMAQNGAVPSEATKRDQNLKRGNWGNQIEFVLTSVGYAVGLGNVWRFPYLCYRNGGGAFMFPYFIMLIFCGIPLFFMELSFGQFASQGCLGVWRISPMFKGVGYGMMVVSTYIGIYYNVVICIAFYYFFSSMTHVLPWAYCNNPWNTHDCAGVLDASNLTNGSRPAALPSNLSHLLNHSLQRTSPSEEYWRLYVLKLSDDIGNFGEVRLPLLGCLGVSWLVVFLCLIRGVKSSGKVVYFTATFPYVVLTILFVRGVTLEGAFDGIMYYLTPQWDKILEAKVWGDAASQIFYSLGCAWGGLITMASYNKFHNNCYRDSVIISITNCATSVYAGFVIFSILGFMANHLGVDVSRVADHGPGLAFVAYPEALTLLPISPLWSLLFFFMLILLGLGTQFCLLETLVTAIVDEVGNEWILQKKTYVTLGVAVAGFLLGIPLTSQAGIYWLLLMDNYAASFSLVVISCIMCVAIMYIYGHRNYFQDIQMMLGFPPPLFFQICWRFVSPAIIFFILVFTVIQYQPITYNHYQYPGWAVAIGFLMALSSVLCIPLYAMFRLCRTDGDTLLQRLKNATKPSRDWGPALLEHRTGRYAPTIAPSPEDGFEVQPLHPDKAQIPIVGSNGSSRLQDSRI

With `C=CC(=O)N1CCC[C@@H](n2nc(-c3ccc(Oc4ccccc4)cc3)c3c(N)ncnc32)C1` the remaining activity was 143% (Interleukin-1 receptor-associated kinase 1 (IRAK1, Homo sapiens, UniProt P51617); 10 µM).
The remaining activity of `COc1cc(-c2cncc3c2CN(C)Cc2cc(N4CCNCC4)ccc2-3)cc(OC)c1OC` is reported as 105% (Serine/threonine-protein kinase PAK 3 (PAK3, Homo sapiens, UniProt O75914); kinase activity; 1 µM, human enzyme, together with: ATP 10 µM; relative to: DMSO control).
With `Nc1ncnc2c1ncn2C1CCCC1` the remaining activity was 30% (Inositol-tetrakisphosphate 1-kinase (Homo sapiens, UniProt Q13572); enzyme activity, inhibitor, radiometric kinase; 10 µM, together with: ATP 1 mM; relative to: control).
For `Cc1cc(NC(=O)c2cccc(NC(=O)/C=C/CN(C)C)c2)ccc1Nc1nccc(-c2cccnc2)n1`, the remaining activity was 1.15 (Mitogen-activated protein kinase 8 (MAPK8, Homo sapiens, UniProt P45983); enzyme activity, inhibitor; 0.06097 µM, 18 h, unit not given, together with: GSH 10 mM pre-incubation; relative to: vehicle).
The Kd of `O=C(O)Cc1nc2ccccc2[nH]1` is reported as > 1000 µM (Ubiquitin carboxyl-terminal hydrolase 20, ZnF-UBD domain (USP20, Homo sapiens, UniProt Q9Y2K6)).
With `COc1cc(N2CCN(C)CC2)ccc1Nc1nc(N)n(C(=O)NCc2ccccc2S(=O)(=O)C(C)C)n1` the remaining activity was 0.15% (EPHB6; enzyme activity; 10 µM; relative to: control).
With `COc1cc(F)ccc1-c1ncnc(Nc2cccc(C[S@](C)(=N)=O)c2)n1` the remaining activity was 100% (Protein kinase C epsilon type (PRKCE, Homo sapiens, UniProt Q02156); kinase activity; 10 µM, together with: 10 µM ATP).
With `O=C(NC1CCC1)c1ccc2nc(-c3cccc(NS(=O)(=O)NCCN4CCCCC4)c3)cn2c1` the remaining activity was 90% (Serine/threonine-protein kinase Nek2 (NEK2, Homo sapiens, UniProt P51955); enzyme activity; 10 µM).
The remaining activity of `CNCC(=O)O` is reported as 34.4% (Sodium- and chloride-dependent glycine transporter 2 (Homo sapiens, UniProt Q9Y345, S479G); glycine uptake, inhibitor, [3H]glycine uptake; 3000 µM, S479G mutant, log concentration 3, together with: [3H]glycine; relative to: no inhibitor).
`O=C(O)CNC(=O)c1ccc(S(=O)(=O)N2CCC(n3c(=O)oc4ccccc43)CC2)cc1` has a Kd of > 1000 µM (Ubiquitin carboxyl-terminal hydrolase 49, ZnF-UBD domain (USP49, Homo sapiens, UniProt Q70CQ1)).
For `COc1ccc(F)cc1C(=O)NCc1ccc(-c2nn([C@@H](C)C(F)(F)F)c(N)c2C(N)=O)cc1`, the remaining activity was 38.6 ± 0.5% (Tyrosine-protein kinase Yes (YES1, Homo sapiens, UniProt P07947); kinase activity, inhibitor, HotSpot radiometric; 1000 nM, together with: ATP at Km).
With `O=C(O)c1ccc(Nc2ncc3c(n2)-c2ccc(Cl)cc2C(c2c(F)cccc2F)=NC3)cc1` the remaining activity was 90% (EphA4(h); kinase activity; 1 µM).
For `C[C@@H](Oc1ccc(S(C)(=O)=O)cc1C(=O)N1C[C@@H]2C[C@]2(c2cc(C(F)(F)F)on2)C1)C(F)(F)F`, the remaining activity was 82.4% (Sodium- and chloride-dependent glycine transporter 1 (SLC6A9, Homo sapiens, UniProt P48067, G373S); glycine uptake, inhibitor, [3H]glycine uptake; 0.003 µM, G319S mutant, log concentration 3, together with: [3H]glycine; relative to: no inhibitor).
The remaining activity of `COc1cc(Nc2ncc3c(n2)-c2ccc(Cl)cc2C(c2c(F)cccc2OC)=NC3)ccc1C(=O)O` is reported as 96% (JAK3; kinase activity; 1 µM).
The remaining activity of `COc1cc(N2CCN(C)CC2)ccc1Nc1nc(N)n(C(=O)NCc2c(Cl)cccc2Cl)n1` is reported as 0% (EPHB6; enzyme activity; 10 µM; relative to: control).
`CN(C)CC#Cc1ccc2[nH]c3c(c2c1)-c1nc(N)ncc1CCC3` has a remaining activity of 92% (Tau-tubulin kinase 1 (TTBK1, Homo sapiens, UniProt Q5TCY1); kinase activity, inhibitor, radiometric; 1 µM, together with: ATP at Km).
`O=C1NC(=O)/C(=C/c2ccc(-c3ccc(F)cc3O)o2)S1` has a remaining activity of 3% (Dual specificity tyrosine-phosphorylation-regulated kinase 1A (DYRK1A, Homo sapiens, UniProt Q13627); enzyme activity; 10 µM).
For `Cc1ccc(NC(=O)c2ccc(C)c(C(F)(F)F)c2)cc1C#Cc1nn(C2CCC(O)CC2)c2ncnc(N)c12` (stereo not drawn), the remaining activity was 94% (Phosphatidylinositol 4,5-bisphosphate 3-kinase catalytic subunit alpha isoform, with p85 alpha (Pik3ca, Mus musculus, UniProt P42337, H1047R); enzyme activity, inhibitor; 10 µM, p110a(H1047R)/p85a)(m mouse, together with: ATP 10 µM).

Excerpt of the above:
For `Cc1cc(NC(=O)c2cccc(NC(=O)/C=C/CN(C)C)c2)ccc1Nc1nccc(-c2cccnc2)n1`, the remaining activity was 1.15 (Mitogen-activated protein kinase 8 (MAPK8, Homo sapiens, UniProt P45983); enzyme activity, inhibitor; 0.06097 µM, 18 h, unit not given, together with: GSH 10 mM pre-incubation; relative to: vehicle).
The Kd of `O=C(O)Cc1nc2ccccc2[nH]1` is reported as > 1000 µM (Ubiquitin carboxyl-terminal hydrolase 20, ZnF-UBD domain (USP20, Homo sapiens, UniProt Q9Y2K6)).
